Measured values from different studies.
A part holds a random share of what one study measured.
UniProt P22607, sequence (whole entry, looked up): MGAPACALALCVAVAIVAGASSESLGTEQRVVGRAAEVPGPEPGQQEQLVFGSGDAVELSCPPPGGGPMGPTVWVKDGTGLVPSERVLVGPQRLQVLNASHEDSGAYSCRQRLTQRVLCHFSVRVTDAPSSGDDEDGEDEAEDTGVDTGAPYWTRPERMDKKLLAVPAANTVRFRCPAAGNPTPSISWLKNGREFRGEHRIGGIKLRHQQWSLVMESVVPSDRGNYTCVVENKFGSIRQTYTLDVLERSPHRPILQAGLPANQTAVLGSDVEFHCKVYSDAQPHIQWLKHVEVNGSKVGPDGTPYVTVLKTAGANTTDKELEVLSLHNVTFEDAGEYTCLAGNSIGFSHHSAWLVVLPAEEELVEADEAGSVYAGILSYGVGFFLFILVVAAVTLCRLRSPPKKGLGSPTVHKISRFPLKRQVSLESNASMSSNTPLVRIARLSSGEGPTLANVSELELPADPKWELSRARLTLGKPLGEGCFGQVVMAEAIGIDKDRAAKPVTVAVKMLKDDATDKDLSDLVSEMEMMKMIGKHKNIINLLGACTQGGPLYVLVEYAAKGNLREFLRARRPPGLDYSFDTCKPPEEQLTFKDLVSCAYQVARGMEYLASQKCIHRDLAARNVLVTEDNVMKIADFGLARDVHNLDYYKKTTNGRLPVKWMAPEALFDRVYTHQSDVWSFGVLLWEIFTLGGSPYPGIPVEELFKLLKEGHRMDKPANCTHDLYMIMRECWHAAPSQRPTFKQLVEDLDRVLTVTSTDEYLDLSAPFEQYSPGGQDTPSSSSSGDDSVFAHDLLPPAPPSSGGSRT
UniProt Q86UE8, sequence (whole entry, looked up): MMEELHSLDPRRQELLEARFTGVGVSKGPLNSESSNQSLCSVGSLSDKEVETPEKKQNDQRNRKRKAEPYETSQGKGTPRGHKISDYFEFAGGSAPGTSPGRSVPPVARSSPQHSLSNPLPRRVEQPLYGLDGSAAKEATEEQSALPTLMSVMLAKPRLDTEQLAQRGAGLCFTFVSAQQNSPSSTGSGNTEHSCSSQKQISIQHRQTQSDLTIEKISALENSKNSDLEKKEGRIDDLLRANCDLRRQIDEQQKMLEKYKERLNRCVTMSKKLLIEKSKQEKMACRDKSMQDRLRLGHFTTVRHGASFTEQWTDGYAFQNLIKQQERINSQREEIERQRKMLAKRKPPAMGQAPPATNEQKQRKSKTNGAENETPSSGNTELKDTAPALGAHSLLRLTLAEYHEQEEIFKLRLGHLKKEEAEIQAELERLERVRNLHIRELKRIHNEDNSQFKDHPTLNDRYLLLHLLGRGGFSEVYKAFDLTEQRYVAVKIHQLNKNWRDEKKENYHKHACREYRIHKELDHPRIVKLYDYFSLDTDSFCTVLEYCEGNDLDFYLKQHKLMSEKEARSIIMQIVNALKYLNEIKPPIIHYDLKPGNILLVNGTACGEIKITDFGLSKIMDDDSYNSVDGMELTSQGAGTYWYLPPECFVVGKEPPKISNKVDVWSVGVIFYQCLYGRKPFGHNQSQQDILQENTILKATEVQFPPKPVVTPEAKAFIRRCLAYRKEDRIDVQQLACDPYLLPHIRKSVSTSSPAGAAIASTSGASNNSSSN
UniProt P11802, sequence (whole entry, looked up): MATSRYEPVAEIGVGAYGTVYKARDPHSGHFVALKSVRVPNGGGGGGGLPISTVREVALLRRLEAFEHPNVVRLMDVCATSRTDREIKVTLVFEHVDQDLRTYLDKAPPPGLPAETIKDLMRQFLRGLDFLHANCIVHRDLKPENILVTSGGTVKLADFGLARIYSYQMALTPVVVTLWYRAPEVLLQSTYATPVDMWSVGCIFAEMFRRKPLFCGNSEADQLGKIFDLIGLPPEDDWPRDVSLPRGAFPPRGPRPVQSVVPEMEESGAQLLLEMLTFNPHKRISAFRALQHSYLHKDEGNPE
UniProt O43318, sequence (whole entry, looked up): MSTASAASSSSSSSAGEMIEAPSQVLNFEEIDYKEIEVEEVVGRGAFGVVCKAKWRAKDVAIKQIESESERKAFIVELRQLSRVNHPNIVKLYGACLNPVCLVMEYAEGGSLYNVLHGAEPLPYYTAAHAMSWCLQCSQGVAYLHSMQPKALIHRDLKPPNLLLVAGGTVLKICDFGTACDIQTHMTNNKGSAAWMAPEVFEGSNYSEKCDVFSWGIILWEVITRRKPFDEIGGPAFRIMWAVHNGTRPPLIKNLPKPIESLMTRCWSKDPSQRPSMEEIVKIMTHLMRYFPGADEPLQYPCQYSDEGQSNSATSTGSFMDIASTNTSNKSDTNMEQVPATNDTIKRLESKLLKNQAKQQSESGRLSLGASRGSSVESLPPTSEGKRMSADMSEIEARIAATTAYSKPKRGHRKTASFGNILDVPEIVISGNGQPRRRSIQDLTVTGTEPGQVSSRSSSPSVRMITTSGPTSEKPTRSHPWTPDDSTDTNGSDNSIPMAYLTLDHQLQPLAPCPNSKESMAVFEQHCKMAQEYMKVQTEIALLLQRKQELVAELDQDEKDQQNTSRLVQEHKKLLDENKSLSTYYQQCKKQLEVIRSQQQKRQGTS
UniProt Q15418, sequence (whole entry, looked up): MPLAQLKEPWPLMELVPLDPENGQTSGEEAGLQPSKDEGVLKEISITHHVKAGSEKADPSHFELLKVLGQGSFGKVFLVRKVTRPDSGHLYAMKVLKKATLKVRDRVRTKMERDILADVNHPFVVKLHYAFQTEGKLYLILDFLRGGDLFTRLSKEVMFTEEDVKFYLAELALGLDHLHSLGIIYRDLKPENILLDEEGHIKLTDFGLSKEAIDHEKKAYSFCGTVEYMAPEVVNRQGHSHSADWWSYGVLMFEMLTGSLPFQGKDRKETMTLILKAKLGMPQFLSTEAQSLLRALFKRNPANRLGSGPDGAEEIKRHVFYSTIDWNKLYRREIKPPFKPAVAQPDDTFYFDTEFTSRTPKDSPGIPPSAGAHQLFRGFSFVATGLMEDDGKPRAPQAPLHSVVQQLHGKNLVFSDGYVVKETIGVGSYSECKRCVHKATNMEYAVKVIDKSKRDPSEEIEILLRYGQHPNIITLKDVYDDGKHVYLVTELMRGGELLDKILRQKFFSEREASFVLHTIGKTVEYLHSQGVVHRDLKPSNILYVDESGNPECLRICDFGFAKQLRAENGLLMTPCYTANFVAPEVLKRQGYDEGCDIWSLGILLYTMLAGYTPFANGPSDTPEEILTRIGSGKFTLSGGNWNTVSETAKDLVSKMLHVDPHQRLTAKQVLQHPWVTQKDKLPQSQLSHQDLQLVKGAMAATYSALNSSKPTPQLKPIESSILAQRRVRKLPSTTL
UniProt P45985, sequence (whole entry, looked up): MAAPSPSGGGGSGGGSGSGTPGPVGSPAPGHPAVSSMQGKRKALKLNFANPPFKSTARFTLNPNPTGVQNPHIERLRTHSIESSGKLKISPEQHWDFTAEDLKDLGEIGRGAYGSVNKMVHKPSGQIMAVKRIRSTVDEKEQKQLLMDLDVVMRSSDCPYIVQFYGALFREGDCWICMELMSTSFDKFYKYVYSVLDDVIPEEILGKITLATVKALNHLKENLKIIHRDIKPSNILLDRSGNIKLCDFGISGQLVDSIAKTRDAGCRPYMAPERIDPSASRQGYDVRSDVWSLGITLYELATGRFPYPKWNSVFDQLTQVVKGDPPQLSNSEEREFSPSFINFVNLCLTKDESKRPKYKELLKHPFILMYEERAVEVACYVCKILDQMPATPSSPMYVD

Set 1
Target: RING finger protein unkempt homolog, zinc fingers 1-6, GST-SBP tag (UNK, Homo sapiens, UniProt Q9C0B0, residues 30-357)
UniProt Q9C0B0, sequence (30-357, looked up): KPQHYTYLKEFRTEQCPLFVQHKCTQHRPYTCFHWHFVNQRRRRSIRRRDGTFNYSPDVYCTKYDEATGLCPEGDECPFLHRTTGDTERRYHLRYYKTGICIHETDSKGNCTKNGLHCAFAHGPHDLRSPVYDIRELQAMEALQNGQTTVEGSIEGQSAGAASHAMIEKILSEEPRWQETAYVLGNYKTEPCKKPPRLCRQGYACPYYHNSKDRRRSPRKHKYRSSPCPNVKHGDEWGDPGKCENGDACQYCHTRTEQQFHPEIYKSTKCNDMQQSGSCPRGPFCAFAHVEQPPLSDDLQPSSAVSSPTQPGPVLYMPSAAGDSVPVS
Method: RNA Bind-n-Seq
Molecule type: RNA
Sample: in vitro
Concentration: not given
Notes: RNA with constant flanks, human-mouse chimeric sites, ends assumed
Relative to: input RNA pool
Direction: higher = stronger binding
Endpoint: bound/input enrichment
Constant ends, left off below: GGGAGUUCUACAGUCCGACGAUC … CAACAGAGGAUUGAGCAUCA
Sequence = UACUCAACUUUCUUGCCACAUUUUGAAUUCCAAGACAUUAUCCCUCCAGAUGACUUCCUAACUAGUGAUGAAGAGCAAGAUUUGGUUUUAUUUGGAACUAUGAGAGGACAAGUUGUUGGA; value = 0.249 ratio
Sequence = UCCUUGGACCCCAGUCAUAUAGGUGACCUGCAAAAAGCAGACACCAGUAGUCAAGGUGCUUUAGUGUUUCUCUCAAAGGACUACGAAAUAGAAAAUCAAAAUCCUCUGGCCUCUCCUACG; value = 2.17 ratio
Sequence = UAUAUCACCAAUGUUCUACAAAAUCCUGACUUGGCUCUGAGAAUGGCUGUGCGGAACAACUUAGCUGGUGCUGAAGAACUCUUUGCCCGGAAAUUUAAUGCUCUCUUCGCCCAGGGAAAC; value = 0.273 ratio
Sequence = UCAAGGGGGCACUGCAGAGCCAUGCCUUUCUUGGACAUACAGAAAAAGCUGGGCAUCAGCCUGGACCGGCACUUUAUGUUCCUAAGCGCAGAACAGCCCUAUAAGAACGCCGCUCGGUGC; value = 0.102 ratio
Sequence = CUGAAAAACACAGAUAUCAAAGUUGUUGAUUUUGGAAGUGCAACGUAUGAUGAUGAACAUCACAGUACUUUGGUGUCUACCCGGCACUACAGGGCUCCCGAGGUCAUUUUGGCUUUAGGU; value = 0.329 ratio
Sequence = CUCAUGGCUGCAGAAACAGGAAGUGGAAAAACUGGUGCAUUUAGUAUUCCAGUUAUCCAGAUAGUGUAUGAAACUCUGAAAGACCAACAGGAAGGAAAGAAAGGGAAAACAACUAUUAAA; value = 0.494 ratio
Sequence = CAGCCUCAGAGCCCAGACUUCCUGGAUAUCACCAACCCUAAAGCGGUAUUAGAAAAUGCAUUGAGAAACUUUGCCUGUCUGACGACUGGAGAUGUGAUUGCUAUCAACUACAAUGAGAAG; value = 0.501 ratio
Sequence = GCUCUUGGGAAUGUAAUCAGCGCCUUGGGGGACAAGAGCAAGAGAGCCACCCAUGUCCCUUACAGAGACUCUAAGCUAACAAGACUACUACAGGAUUCCCUUGGGGGUAACAGCCAAACC; value = 0.155 ratio

Set 2
Target: Serine/threonine-protein kinase MARK2 (MARK2, Homo sapiens, UniProt Q7KZI7)
Read-out: enzyme activity
Mode: inhibitor
Concentration: 0.5 µM
Relative to: control
Endpoint: remaining activity
Target sequence (Q7KZI7 1-788): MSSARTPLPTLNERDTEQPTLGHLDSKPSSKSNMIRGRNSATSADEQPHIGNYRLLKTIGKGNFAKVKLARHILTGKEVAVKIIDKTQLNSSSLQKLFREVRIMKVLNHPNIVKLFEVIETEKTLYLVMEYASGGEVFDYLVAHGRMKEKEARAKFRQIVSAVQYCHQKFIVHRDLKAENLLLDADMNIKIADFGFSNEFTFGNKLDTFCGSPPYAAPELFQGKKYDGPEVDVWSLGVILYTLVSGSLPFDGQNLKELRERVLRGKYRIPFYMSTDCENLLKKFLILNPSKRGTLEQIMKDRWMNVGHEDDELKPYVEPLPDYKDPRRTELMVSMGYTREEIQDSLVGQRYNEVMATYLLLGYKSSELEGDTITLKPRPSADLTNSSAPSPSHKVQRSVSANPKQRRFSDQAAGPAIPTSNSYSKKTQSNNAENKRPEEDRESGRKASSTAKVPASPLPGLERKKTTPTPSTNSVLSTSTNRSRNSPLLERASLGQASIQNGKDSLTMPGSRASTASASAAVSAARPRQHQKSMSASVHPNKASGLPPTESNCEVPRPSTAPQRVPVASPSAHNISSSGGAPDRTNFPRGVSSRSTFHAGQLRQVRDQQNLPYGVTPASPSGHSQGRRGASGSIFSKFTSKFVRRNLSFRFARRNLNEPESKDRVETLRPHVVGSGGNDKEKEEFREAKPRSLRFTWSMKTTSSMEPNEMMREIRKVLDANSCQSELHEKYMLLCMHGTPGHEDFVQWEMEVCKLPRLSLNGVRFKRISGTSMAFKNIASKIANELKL
SMILES = C#Cc1cccc(Nc2ncnc3cc(OCCOC)c(OCCOC)cc23)c1; value = 129%
SMILES = Cc1cccc(-c2[nH]c(C(C)(C)C)nc2-c2ccc3c(c2)OCO3)n1; value = 90%
SMILES = Oc1ccc(-c2nc(-c3ccncc3)c(-c3ccc(F)cc3)[nH]2)cc1; value = 99%
SMILES = O=C(Nc1cccc(Nc2cc(Nc3cccc(C(F)(F)F)c3)ncn2)c1)C1CC1; value = 101%
SMILES = CNC(=O)c1cc(Oc2ccc(NC(=O)Nc3ccc(Cl)c(C(F)(F)F)c3)cc2)ccn1; value = 94.9%
SMILES = COc1ccc(CNC(=O)Nc2ncc([N+](=O)[O-])s2)cc1; value = 106%
SMILES = COc1ccc(OC)c2c(=S)c3ccccc3[nH]c12; value = 93.9%
SMILES = CO[C@H]1C[C@@H]2CC[C@@H](C)[C@@](O)(O2)C(=O)C(=O)N2CCCC[C@H]2C(=O)O[C@H]([C@H](C)C[C@@H]2CC[C@@H](O)[C@H](OC)C2)CC(=O)[C@H](C)/C=C(\C)[C@@H](O)[C@@H](OC)C(=O)[C@H](C)C[C@H](C)/C=C/C=C/C=C/1C; value = 104%
SMILES = O=C1NC(=O)C(c2cn(CCCO)c3ncccc23)=C1c1cnccn1; value = 97.5%
SMILES = Cc1ccc(NC(=O)c2ccc(CN3CCN(C)CC3)cc2)cc1Nc1nc(-c2cccnc2)cs1; value = 104%
SMILES = O=S(=O)(c1cccc2cnccc12)N1CCCNCC1; value = 108%
SMILES = NCCNc1ncc(C(N)=O)c(Nc2cccc(C(F)(F)F)c2)n1; value = 78.9%
SMILES = COc1cc2nccc(Oc3ccc(NC(=S)NC(=O)c4ccccc4C)cc3)c2cc1OC; value = 82.3%
SMILES = CCOC(=O)c1c(C)[nH]c(/C=C2\C(=O)Nc3ccccc32)c1C; value = 87.6%

Set 3
Compound: O=C(O)[C@H]1[C@H](Cn2nnc3ccccc3c2=O)CC[C@@H]1C(=O)c1ccc(OCCC2CCOCC2)cc1
Read-out: cell-free assay
Method: competition with immobilised ligand
Concentration: 1 µM
Endpoint: remaining binding
target = TLK2 (Homo sapiens, UniProt Q86UE8); value = 98%
target = FGFR3 (Homo sapiens, UniProt P22607); value = 100%
target = Ribosomal protein S6 kinase alpha-1, N-terminal kinase domain (RPS6KA1, Homo sapiens, UniProt Q15418); value = 90%
target = MAP3K7 (Homo sapiens, UniProt O43318); value = 100%
target = MAP2K4 (Homo sapiens, UniProt P45985); value = 97%
target = AKT1 (Homo sapiens, UniProt P31749); value = 83%
target = MAP3K5 (Homo sapiens, UniProt Q99683); value = 95%
target = PIK3CA (Homo sapiens, UniProt P42336, E542K); value = 71%
target = Cyclin-dependent kinase 4, with cyclin D3 (CDK4, Homo sapiens, UniProt P11802); value = 89%
target = EGFR (Homo sapiens, UniProt P00533, del752-759); value = 40%
target = GRK1 (Homo sapiens, UniProt Q15835); value = 97%
target = ROS1 (Homo sapiens, UniProt P08922); value = 95%
target = Tyrosine-protein kinase ABL1, phosphorylated (ABL1, Homo sapiens, UniProt P00519, T315I); value = 79%

Set 4
Target: Sal-like protein 4, full length isoform A (SALL4, Homo sapiens, UniProt Q9UJQ4, residues 1-1053)
UniProt Q9UJQ4, sequence (whole entry, looked up): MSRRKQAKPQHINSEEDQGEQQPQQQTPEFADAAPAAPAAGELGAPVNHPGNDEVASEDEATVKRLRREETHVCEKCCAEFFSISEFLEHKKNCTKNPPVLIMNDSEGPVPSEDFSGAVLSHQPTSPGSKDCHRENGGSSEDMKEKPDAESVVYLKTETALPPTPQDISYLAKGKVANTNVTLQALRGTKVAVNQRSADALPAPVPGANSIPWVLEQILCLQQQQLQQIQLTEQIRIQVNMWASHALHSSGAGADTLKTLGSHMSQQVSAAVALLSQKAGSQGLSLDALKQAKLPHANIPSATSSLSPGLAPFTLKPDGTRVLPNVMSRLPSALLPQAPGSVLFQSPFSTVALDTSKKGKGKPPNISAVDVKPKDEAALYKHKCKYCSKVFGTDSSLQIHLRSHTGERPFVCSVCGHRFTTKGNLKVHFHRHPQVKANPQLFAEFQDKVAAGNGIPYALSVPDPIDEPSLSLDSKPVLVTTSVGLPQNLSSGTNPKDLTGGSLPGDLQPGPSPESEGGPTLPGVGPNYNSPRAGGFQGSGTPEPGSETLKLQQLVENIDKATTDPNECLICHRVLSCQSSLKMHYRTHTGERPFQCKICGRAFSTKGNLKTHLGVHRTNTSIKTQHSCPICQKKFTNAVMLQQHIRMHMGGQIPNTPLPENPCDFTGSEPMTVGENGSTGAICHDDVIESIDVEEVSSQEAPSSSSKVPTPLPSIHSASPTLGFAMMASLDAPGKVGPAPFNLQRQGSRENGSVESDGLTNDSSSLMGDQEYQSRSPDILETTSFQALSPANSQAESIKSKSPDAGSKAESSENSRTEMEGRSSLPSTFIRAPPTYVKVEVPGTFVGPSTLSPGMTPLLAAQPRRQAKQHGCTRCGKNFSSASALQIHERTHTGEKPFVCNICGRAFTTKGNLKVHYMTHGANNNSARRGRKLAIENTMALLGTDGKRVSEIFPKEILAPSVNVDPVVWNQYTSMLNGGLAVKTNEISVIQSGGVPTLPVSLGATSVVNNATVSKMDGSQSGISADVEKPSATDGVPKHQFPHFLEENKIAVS
Method: universal PBM
Molecule type: double-stranded DNA, one strand shown
Sample: in vitro
Concentration: 600 nM
Notes: 8-mer, flanks averaged, mean of replicates
Direction: higher = stronger binding
Endpoint: E-score
Sequence = ACCTGCGG; value = -0.334
Sequence = ATTAGCAA; value = 0.295
Sequence = ATAAACCG; value = 0.0674
Sequence = ATGCCCAG; value = -0.173
Sequence = CGACGAGC; value = -0.241
Sequence = AGTCCATG; value = -0.103
Sequence = TCGTGGAA; value = 0.144
Sequence = AATAGCTC; value = -0.0362

Repeated from above (set 3):
target = MAP2K4 (Homo sapiens, UniProt P45985); value = 97%
target = ROS1 (Homo sapiens, UniProt P08922); value = 95%
target = Cyclin-dependent kinase 4, with cyclin D3 (CDK4, Homo sapiens, UniProt P11802); value = 89%
